Measurements of several laboratories.
Lines come from different studies, so protocols differ. “And” joins repeats or separate records; there may be more than shown. Numbers after ± are the reported error.

SMILES | test system | conditions | scale | quantity | value
CCCCCCCOc1ccc(CC[C@](N)(CO)COP(=O)(O)O)cc1C(F)(F)F | rat Sprague-Dawley male, heart | oral, 1 mg/kg |  | AUC(0-t) | 846 ng·h/g
CCCCC/C=C/C=C/C(=O)NCC(C)C | rat, sham-operated, plasma | oral, 50 mg/kg |  | AUC(0-t) | 337 ± 222 ng·h/mL
CC(C)(C)C(=O)Nc1ccc2[nH]c(CN3CCC(N(CCCN4CCOCC4)CC4OC(n5cnc6c(N)ncnc65)C(O)C4O)CC3)nc2c1 (centres unmarked) | Sprague-Dawley rat male, plasma | intravenous, 20 mg/kg |  | AUC(0-t) | 2690 ± 620 ng·h/mL
NC(=O)c1cnc2[nH]ccc2c1NC1C2CC3CC1CC(OS(=O)(=O)O)(C3)C2 (centres unmarked) | Japanese adults, moderate hepatic impairment, plasma | oral, 150 mg single dose |  | AUC(0-t) | 2480 ng·h/mL
C[Si]1(C)CNC(=O)c2ccccc21 | Sprague-Dawley rat, male, plasma | oral, 5 mg/kg |  | AUC(0-t) | 3170 ± 712 ng·h/mL
N=C(N)NCCC[C@H](NC(=O)[C@@H]1CCCN1C(=O)[C@H](Cc1ccccc1)NC(=O)[C@@H]1CCCN1C(=O)[C@H](Cc1c[nH]cn1)NC(=O)[C@@H](N)Cc1ccccc1)C(=O)O | Sprague-Dawley rat male, plasma | intravenous, 10 mg/kg, 120 min |  | AUC(0-t) | 22.5 ± 6.4 ng·h/mL
CN1CCN(c2ccc(Nc3ncc(Cl)c(Nc4ccccc4P(C)(C)=O)n3)cc2Br)CC1 | Sprague-Dawley rat, male, plasma | oral, 25 mg/kg |  | AUC(0-t) | 3130 ng·h/mL and 3250 ng·h/mL
Cc1cc2c(cc1C1(c3ncc(C(=O)O)cn3)CC1)C(C)(C)CCC2(C)C | rat Sprague-Dawley male, plasma | oral, 100 mg/kg, sesame oil |  | AUC(0-t) | 50400 ng·h/mL
COC(=O)/C=C/C(=O)c1ccc(OC)cc1 | Sprague-Dawley rat, both sexes, plasma | oral, 200 mg/kg |  | AUC(0-t) | 2100 ± 271 ng·h/mL
COc1ccnc(C[S+]([O-])c2nc3cc(-n4cccc4)ccc3[nH]2)c1C (centres unmarked) | male Sprague Dawley rats, plasma | oral, 10 mg/kg ilaprazole racemate | baseline: compound over R-ilaprazole | AUC(0-t) ratio | 1.28
CSCC(NC(=O)c1cc(Cl)ccc1Cl)C(=O)NC(CC(C)C)B(O)O (centres unmarked) | Sprague-Dawley rat | oral, 0.30 mg/kg of prodrug | baseline: whole blood over plasma | AUC(0-t) ratio | > 100 fold

Excerpt of the above:
SMILES | test system | conditions | scale | quantity | value
Cc1cc2c(cc1C1(c3ncc(C(=O)O)cn3)CC1)C(C)(C)CCC2(C)C | rat Sprague-Dawley male, plasma | oral, 100 mg/kg, sesame oil |  | AUC(0-t) | 50400 ng·h/mL
